Experimental data pooled from the literature.
Protocols differ between the studies behind these lines. ± gives the spread as reported.
Chain of UniProt Q99623 (whole entry, looked up): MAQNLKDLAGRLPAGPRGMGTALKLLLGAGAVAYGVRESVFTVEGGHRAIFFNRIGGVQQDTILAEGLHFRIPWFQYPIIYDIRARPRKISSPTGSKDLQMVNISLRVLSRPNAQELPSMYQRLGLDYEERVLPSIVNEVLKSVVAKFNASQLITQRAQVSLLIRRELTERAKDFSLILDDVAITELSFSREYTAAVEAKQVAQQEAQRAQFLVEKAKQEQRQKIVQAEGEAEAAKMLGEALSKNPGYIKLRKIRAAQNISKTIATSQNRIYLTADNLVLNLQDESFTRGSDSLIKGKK
Chain of UniProt P10632 (whole entry, looked up): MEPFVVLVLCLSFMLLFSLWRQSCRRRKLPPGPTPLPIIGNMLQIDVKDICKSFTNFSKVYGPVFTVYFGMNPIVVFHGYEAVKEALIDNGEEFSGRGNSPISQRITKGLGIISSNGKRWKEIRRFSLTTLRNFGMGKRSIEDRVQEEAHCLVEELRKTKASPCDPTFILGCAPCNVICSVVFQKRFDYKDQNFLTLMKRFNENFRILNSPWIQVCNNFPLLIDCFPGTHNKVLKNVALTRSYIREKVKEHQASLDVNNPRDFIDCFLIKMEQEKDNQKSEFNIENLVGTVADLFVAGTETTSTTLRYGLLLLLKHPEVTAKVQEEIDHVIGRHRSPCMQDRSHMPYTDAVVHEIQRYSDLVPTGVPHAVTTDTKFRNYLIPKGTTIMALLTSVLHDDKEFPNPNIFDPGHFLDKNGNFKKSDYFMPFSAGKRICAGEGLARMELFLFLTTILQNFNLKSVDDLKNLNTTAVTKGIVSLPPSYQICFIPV
Chain of UniProt Q9NYM4 (whole entry, looked up): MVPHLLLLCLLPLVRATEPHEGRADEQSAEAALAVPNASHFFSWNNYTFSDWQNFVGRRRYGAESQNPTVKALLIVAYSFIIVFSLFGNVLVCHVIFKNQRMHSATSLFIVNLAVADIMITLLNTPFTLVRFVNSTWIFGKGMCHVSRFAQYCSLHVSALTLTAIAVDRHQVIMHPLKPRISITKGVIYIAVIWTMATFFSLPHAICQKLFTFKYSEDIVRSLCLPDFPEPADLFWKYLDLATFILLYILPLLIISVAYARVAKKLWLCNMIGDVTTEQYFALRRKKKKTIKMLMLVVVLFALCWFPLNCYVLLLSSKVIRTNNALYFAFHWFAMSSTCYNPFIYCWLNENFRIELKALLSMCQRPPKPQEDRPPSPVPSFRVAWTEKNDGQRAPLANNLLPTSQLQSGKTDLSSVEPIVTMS
Chain of UniProt P29376 (whole entry, looked up): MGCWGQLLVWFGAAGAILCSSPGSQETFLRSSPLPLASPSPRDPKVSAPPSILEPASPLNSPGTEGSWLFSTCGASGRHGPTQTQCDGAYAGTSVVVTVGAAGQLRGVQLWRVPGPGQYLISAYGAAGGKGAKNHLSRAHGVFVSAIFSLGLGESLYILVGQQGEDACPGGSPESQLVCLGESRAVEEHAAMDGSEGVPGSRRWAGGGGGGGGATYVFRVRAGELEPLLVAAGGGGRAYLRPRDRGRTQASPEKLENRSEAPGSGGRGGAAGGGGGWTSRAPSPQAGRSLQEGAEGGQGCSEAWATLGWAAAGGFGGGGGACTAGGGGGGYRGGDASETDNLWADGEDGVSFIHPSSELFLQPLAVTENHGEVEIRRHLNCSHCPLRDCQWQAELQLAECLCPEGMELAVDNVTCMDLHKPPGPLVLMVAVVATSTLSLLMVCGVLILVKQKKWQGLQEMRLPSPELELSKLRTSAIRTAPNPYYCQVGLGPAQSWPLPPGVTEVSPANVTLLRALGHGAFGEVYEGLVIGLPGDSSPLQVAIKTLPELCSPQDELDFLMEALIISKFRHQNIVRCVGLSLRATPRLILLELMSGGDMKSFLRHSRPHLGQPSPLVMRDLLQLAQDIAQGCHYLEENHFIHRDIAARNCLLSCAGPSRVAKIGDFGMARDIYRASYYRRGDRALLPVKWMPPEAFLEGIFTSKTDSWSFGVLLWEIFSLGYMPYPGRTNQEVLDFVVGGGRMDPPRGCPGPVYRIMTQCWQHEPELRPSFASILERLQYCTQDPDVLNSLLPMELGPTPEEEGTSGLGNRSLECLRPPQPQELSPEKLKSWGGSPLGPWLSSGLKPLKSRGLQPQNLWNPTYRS
Chain of UniProt P13798 (whole entry, looked up): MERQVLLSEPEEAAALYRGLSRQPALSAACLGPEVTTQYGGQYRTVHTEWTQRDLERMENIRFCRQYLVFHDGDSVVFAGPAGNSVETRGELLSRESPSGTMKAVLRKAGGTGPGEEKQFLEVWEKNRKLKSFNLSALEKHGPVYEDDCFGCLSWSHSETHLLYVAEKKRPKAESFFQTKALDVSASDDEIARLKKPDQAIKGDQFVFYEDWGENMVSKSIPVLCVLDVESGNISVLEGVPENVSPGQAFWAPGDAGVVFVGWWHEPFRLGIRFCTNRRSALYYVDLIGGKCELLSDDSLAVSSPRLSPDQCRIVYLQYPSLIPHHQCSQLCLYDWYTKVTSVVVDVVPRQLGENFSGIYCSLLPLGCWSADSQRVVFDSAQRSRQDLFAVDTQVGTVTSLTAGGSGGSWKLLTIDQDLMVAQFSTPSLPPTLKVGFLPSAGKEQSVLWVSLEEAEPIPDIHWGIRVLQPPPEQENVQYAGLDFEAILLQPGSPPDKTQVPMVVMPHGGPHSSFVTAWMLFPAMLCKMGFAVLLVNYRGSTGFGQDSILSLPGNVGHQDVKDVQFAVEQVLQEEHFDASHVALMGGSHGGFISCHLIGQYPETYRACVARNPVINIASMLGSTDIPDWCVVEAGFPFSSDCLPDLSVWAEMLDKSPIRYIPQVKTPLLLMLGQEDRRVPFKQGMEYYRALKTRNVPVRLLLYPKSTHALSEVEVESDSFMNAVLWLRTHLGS
Chain of UniProt P53634 (whole entry, looked up): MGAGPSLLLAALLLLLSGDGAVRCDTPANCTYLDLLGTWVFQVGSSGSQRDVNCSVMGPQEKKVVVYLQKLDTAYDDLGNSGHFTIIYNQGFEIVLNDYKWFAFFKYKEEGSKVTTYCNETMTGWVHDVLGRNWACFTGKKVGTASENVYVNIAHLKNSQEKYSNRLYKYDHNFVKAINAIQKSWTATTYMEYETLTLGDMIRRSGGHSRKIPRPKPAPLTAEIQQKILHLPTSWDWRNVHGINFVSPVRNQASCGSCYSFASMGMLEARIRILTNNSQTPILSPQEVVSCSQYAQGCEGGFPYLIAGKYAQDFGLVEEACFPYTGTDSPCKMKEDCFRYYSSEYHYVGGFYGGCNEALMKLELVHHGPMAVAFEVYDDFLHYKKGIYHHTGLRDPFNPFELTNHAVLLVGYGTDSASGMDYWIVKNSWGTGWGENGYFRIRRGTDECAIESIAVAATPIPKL

C[C@H]1CN(C(=O)CC#N)[C@]12CCN(c1ncnc3[nH]ccc13)C2  AUC at NOAEL (minipig, female; dermal, 20 mg/kg repeated, 9 months): 79 ng·h/mL
N=C(N)NCCC[C@@H]1NC(=O)[C@H](CCCCNC(=O)c2ccc(CNC34CNCCNCC(N)(CNCCNC3)CNCCNC4)cc2)NC(=O)[C@@H](Cc2ccc(O)cc2)NC(=O)[C@H](CC(=O)O)NC(=O)CNC1=O [copper-64 labelled]  tumour uptake (microPET imaging; athymic nude mice, male, PC-3 xenograft, PC-3 tumour; intravenous, 0.2 nmol, 7.4 MBq, 2 h): 0.54 ± 0.09 %ID/g
COc1cc(CCC[P+](c2ccccc2)(c2ccccc2)c2ccccc2)c(OC)c2c1OCO2.[I-]  Log10TGI (LOX IMVI; SRB): -4.92 log M
COc1cc(Nc2ncc(F)c(Nc3ccc4c(n3)NC(=O)C(C)(C)O4)n2)cc(OC)c1OC  IC50 (Dipeptidyl peptidase 1 (CTSC, Homo sapiens, UniProt P53634)): > 10 µM
CC(C)C[C@H](NC(=O)[C@H](CCC(N)=O)NC(=O)[C@H](C)NC(=O)[C@H](C)NC(=O)[C@H](CCCNC(=N)N)NC(=O)[C@H](CCCNC(=N)N)NC(=O)[C@H](CCCNC(=N)N)NC(=O)[C@H](CC(C)C)NC(=O)[C@H](Cc1c[nH]cn1)NC(=O)[C@@H](NC(=O)[C@H](CCCCN)NC(=O)[C@H](CCCNC(=N)N)NC(=O)[C@H](CCCNC(=N)N)NC(=O)[C@H](CCCNC(=N)N)NC(=O)[C@H](CCC(N)=O)NC(=O)[C@H](CCCNC(=N)N)NC(=O)[C@H](CCCNC(=N)N)NC(=O)[C@H](CCCCN)NC(=O)[C@H](CCCCN)NC(=O)[C@H](CCCNC(=N)N)NC(=O)CNC(=O)[C@@H](N)Cc1ccc(O)cc1)[C@@H](C)O)C(=O)N[C@@H](CCCCN)C(N)=O  latency to fall (hanging wire test; rat; intra-CA1 bilateral, dose not given; relative to: saline): no effect
O=C(c1ccc(Cl)cc1)N1CCN2C(=O)N(OC(=O)N3CCOc4ccccc43)C(=O)C2C1 (stereo not drawn)  median ratio (Acylamino-acid-releasing enzyme (APEH, Homo sapiens, UniProt P13798); enzyme activity, inhibitor, MS-based ABPP; SW-620 in situ; 10 µM, 2 h, 37 °C; relative to: compound over DMSO, lower = stronger inhibition): 1.13
Cn1c(-c2ccc(C(N)=O)cc2F)nnc1C(C)(C)Oc1c(F)cc(Cl)cc1F  nervous system disorder TEAE (human; oral, 1 mg, single ascending dose): 16.7%
COc1ccc(N2C(=O)N(c3c(C)cccc3Cl)Cc3cnc(Nc4ccc(C5CCN(C)CC5)cc4OC)nc32)nc1  inhibition (Leukocyte tyrosine kinase receptor (LTK, Homo sapiens, UniProt P29376); kinase activity; 0.5 µM): 58%
C[C@]1(CO)Cc2ncn(-c3ccc(C#N)c(Cl)c3)c2C(=O)O1  drug-related Headache incidence (Japanese subjects; dose not given, all doses total): 0%
CCN1[C@@H](C(=O)NC23CCC(C(=O)O)(CC2)CC3)[C@H](c2cccc(Cl)c2F)[C@]2(C(=O)Nc3cc(Cl)ccc32)C12CCCCC2  ALT elevation incidence (patients with advanced solid tumours; oral, 200 mg): 0%
CN1CC[C@@H](c2c(O)cc(O)c3c(=O)cc(-c4ccc(C(F)(F)F)cc4Cl)oc23)[C@@H]1CO  patients with adverse event (measured: Hyperglycemia; relapsed or refractory haematological malignancies; oral, dose not given, grade 3 to 4, all arms): 5%
COc1cc2c(Oc3ccc4[nH]c(C)cc4c3F)ccnc2cc1OCC1(N)CC1  grade 3 Neutropenia (paediatric recurrent refractory sarcoma; 8 mg): 0%
CCN1CCN(Cc2ccc(Nc3ncc(F)c(-c4cc(F)c5nc6n(c5c4)[C@H](C)CCC6)n3)nc2)CC1  blood creatinine increased incidence (Phase Ia dose escalation; patients with advanced solid tumours; dose not given, monotherapy, grade ≥3): 4.2%
C[C@H]1CN(c2n[nH]c3nc(N[C@H]4CC[C@H](NS(=O)(=O)CCC(F)(F)F)CC4)ncc23)CCO1  relative abundance (Prohibitin-2 (PHB2, Homo sapiens, UniProt Q99623); inhibitor, Kinobeads competition profiling; 0.032 µM; relative to: vehicle): 1.06
CCc1ccc(CC/C=C/c2ccc3c(c2)C(=O)CC3)cc1  hematocrit (Sprague-Dawley rat, male, blood; oral, 450 mg/kg/day, 14 days): 44.6%
CC(C)CC(=O)OC[C@H]1O[C@@](C#N)(c2ccc3c(N)ncnn23)[C@H](O)[C@@H]1O  remaining compound (Cytochrome P450 2C8 (CYP2C8, Homo sapiens, UniProt P10632); metabolic stability; recombinant enzyme; 1 µM, 30 min): 1.39 ± 0.0784%
Oc1ccc2c3c1O[C@H]1[C@@H](O)CC[C@@]4(O)[C@@H](C2)N(CC2CCC2)CC[C@]314  log2 fold change (G-protein coupled receptor 83 (GPR83, Homo sapiens, UniProt Q9NYM4); β-arrestin recruitment, TANGO luminescence, measured: GPR83; concentration not given; relative to: basal luminescence): -0.011
O=C(Nc1ccccc1)C1CCN(C(=O)Oc2cccnc2)CC1  subjects with Tachycardia adverse event (adverse event reporting; healthy women; oral, 60 mg, 7 days): 7.1%
CC[C@H](C)[C@@H]1NC(=O)[C@H](CC(C)C)NC(=O)[C@@H](CC(C)C)NC(=O)[C@H]2CCCN2C(=O)[C@H](Cc2ccc(OC)cc2)NC(=O)[C@@H](CC(C)C)NC1=O  Papp (LC/MS; horizontal lipid bilayer; 10 µM, 1 h, room temperature, 1% DMSO in PBS): 300 ± 100 ×10⁻⁶ cm/s
O[C@H]1CCCN[C@@H]1CCCn1cnc2c(Cl)c(Cl)ccc21  AUCtau geometric LS mean (healthy volunteers, plasma; oral, 150 mg twice daily, alone): 1120 ng·h/mL
CCCCCCCCCCCCCCCC(=O)N[C@@H](CCC(=O)NCCCC[C@H](NC(=O)[C@H](CC(=O)O)NC(=O)[C@H](CO)NC(=O)[C@@H](NC(=O)[C@H](Cc1ccccc1)NC(=O)[C@@H](NC(=O)CNC(=O)[C@H](CCC(N)=O)NC(=O)[C@H](CO)NC(=O)[C@@H](N)Cc1c[nH]cn1)[C@@H](C)O)[C@@H](C)O)C(=O)N[C@@H](CO)C(=O)N[C@@H](CCC(=O)O)C(=O)N[C@@H](Cc1ccc(O)cc1)C(=O)N[C@@H](CC(C)C)C(=O)N[C@@H](CC(=O)O)C(=O)N[C@@H](CO)C(=O)N[C@@H](CCC(=O)O)C(=O)N[C@@H](CCCNC(=N)N)C(=O)N[C@@H](C)C(=O)N[C@@H](CCCNC(=N)N)C(=O)N[C@@H](CC(=O)O)C(=O)N[C@@H](Cc1ccccc1)C(=O)N[C@H](C(=O)N[C@@H](C)C(=O)N[C@@H](Cc1c[nH]c2ccccc12)C(=O)N[C@@H](CC(C)C)C(=O)N[C@@H](CCC(=O)O)C(=O)N[C@@H](C)C(=O)NCC(=O)NCC(=O)O)C(C)C)C(=O)O  treatment-related adverse events (measured: Dizziness; humans CrCl 20 to 30 mL/min; subcutaneous, 100 µg single dose): 0%
C[C@@H](O)[C@@H](CO)NC(=O)[C@@H](CCCNC(=N)N)NC(=O)[C@@H]1CCCN1C(=O)[C@@H]1CSSC[C@H](NC(=O)[C@H](Cc2ccccc2)NC(=O)CN2CCN(CC(=O)O)CCN(CC(=O)O)CCN(CC(=O)O)CC2)C(=O)N[C@@H](Cc2ccc(O)cc2)C(=O)N[C@@H](Cc2ccccc2)C(=O)N[C@@H](CCC(N)=O)C(=O)N[C@@H](CC(N)=O)C(=O)N1 [gallium-68 labelled]  tissue uptake (Wistar rat, adrenals; intravenous, 8 MBq, 60 min, group mean): 0.09 %ID/g
CC(C)C[C@H](NC(=O)[C@H](CCCCN)NC(=O)OCC1c2ccccc2-c2ccccc21)C(=O)N[C@H](C(=O)N[C@@H](Cc1ccccc1)C(=O)N[C@@H](Cc1ccccc1)C(=O)N[C@@H](CCCCN)C(=O)NCC(=O)N[C@@H](Cc1ccccc1)C(=O)N[C@@H](C)C(=O)N[C@@H](Cc1c[nH]c2ccccc12)C(=O)N[C@@H](CC(N)=O)C(=O)N[C@H](C(=O)N[C@H]1CSSC[C@@H](C(=O)N[C@@H](Cc2c[nH]cn2)C(=O)N[C@@H](CCCNC(=N)N)C(=O)N[C@@H](CCCNC(=N)N)C(=O)N[C@@H](C)C(=O)N[C@@H](CC(N)=O)C(N)=O)NC(=O)[C@H](C(C)C)NC(=O)[C@H](CCCNC(=N)N)NC(=O)[C@H](C(C)C)NC(=O)CNC(=O)[C@H](CC(N)=O)NC(=O)[C@H](CCCNC(=N)N)NC(=O)[C@H](Cc2ccc(O)cc2)NC(=O)[C@H](C(C)C)NC1=O)C(C)C)C(C)C  MCH (ICR mouse, blood; intramammary, 5 mg/kg, day 5, 3 d dosing): 13.3 ± 0.29 pg
O=C1c2c(O)c(=O)ccn2N([C@@H]2c3ccccc3SCc3c2ccc(F)c3F)[C@@H]2COCCN12  Cmax (BALB/c mouse; subcutaneous, 0.5 mg/kg q12h): 36.6 ng/mL
N#Cc1cc(NC(=O)[C@H]2c3ccccc3C(=O)N(CC(F)(F)F)[C@@H]2c2cccnc2)ccc1F  well tolerated single dose (Sprague Dawley rat, both sexes; oral): ≤ 750 mg/kg
CC[C@H](C)[C@@H]1NC(=O)[C@@H]2CCCN2C(=O)[C@H](CC(C)C)NC(=O)[C@H](CC(C)C)NC(=O)CNC(=O)[C@@H](NC(=O)[C@@H](NC(=O)[C@H](CC(=O)O)NC(=O)CNC(=O)[C@@H](NC(=O)[C@H](C)NC(=O)CNC(=O)[C@H](CCCCN)NC(=O)[C@H](CC(C)C)NC(=O)[C@H](CC(C)C)NC(=O)[C@H](CCCCN)NC(=O)CNC(=O)[C@@H](NC(=O)[C@@H](N)CC(C)C)C(C)C)C(C)C)C(C)C)CSSC[C@@H](C(=O)O)NC1=O  log2 fold change (RNA-seq, measured: Tgif1; mouse, traumatic brain injury model, frontal cortex and hippocampus; dose not given; relative to: TBI alone): -2.09
COC[C@@H](CC(C)C)NC(=O)c1ccc(C)c(C)c1  PCE to total erythrocyte ratio (Hsd:ICR (CD-1) mouse, male, bone marrow; oral, 2000 mg/kg, 48 h): 0.522
COc1ccc2c(c1)NC(=O)CN2c1nc(C)nc2c1CCC2  cumulative urinary excretion (measured: unchanged compound; Sprague-Dawley rat, both sexes, urine; intravenous, 2 mg/kg): 0.00134%
COc1ccc2nc3cc(Cl)ccc3c(Nc3cc(CN4CCCC4)c(O)c(CN4CCCC4)c3)c2n1  blood pH (mouse, blood; intraperitoneal, 28 mg/kg): 7.58
CC[C@H](C)[C@H](NC(=O)[C@H](Cc1ccccc1)NC(=O)[C@H](CCC(=O)O)NC(=O)[C@H](CCCNC(=N)N)NC(=O)[C@H](C)NC(=O)[C@H](C)NC(=O)[C@H](CCC(N)=O)NC(=O)[C@H](CCC(=O)O)NC(=O)[C@H](CCC(=O)O)NC(=O)[C@H](CC(C)C)NC(=O)[C@H](Cc1ccc(O)cc1)NC(=O)[C@H](CO)NC(=O)[C@H](CO)NC(=O)[C@@H](NC(=O)[C@H](CC(=O)O)NC(=O)[C@H](CO)NC(=O)[C@@H](NC(=O)[C@H](Cc1ccccc1)NC(=O)[C@@H](NC(=O)CNC(=O)[C@H](CCC(=O)O)NC(=O)[C@H](C)NC(=O)CCc1c[nH]cn1)[C@@H](C)O)[C@@H](C)O)C(C)C)C(=O)N[C@@H](C)C(=O)N[C@@H](Cc1c[nH]c2ccccc12)C(=O)N[C@@H](CC(C)C)C(=O)N[C@H](C(=O)N[C@@H](CCCNC(=N)N)C(=O)NCC(=O)N[C@@H](CCCNC(=N)N)C(=O)N[C@@H](CCCCNC(=O)COCCOCCNC(=O)COCCOCCNC(=O)CC[C@H](NC(=O)CCCCCCCCCCCCCCCCC(=O)O)C(=O)O)C(=O)NCC(=O)NCC(=O)N[C@@H](CO)C(=O)N[C@@H](CCCCNc1c(NCCCCCN(O)C(=O)CCC(=O)NCCCCCN(O)C(=O)CCC(=O)NCCCCCN(O)C(C)=O)c(=O)c1=O)C(=O)O)C(C)C [zirconium-89 labelled]  tissue uptake (gamma counting; rat, stomach-duodenum content; intravenous, 3 nmol/kg, 4 h): 0.13 %ID/g
O=C1Nc2cc3[nH]nc(-c4ccncc4)c3cc2CN1Cc1ccccc1  patients with grade ≥3 TEAE (measured: Hypokalemia; patients with advanced solid tumours; intravenous, dose not given, schedules 1 and 2): 6%
CO[C@H]1C[C@@H]2CC[C@@H](C)[C@@](O)(O2)C(=O)C(=O)N2CCCC[C@H]2C(=O)O[C@H]([C@H](C)C[C@@H]2CC[C@@H](OC(=O)NCCOCCOCCOCCOCCOCCOCCOCCOCCC(=O)N3CCc4cc(Cn5nc(-c6ccc7oc(N)nc7c6)c6c(N)ncnc65)ccc4C3)[C@H](OC)C2)C[C@@H](O)[C@H](C)/C=C(\C)[C@@H](O)[C@@H](OC)C(=O)[C@H](C)C[C@H](C)/C=C/C=C/C=C/1C  TRAE incidence (phase 1 dose escalation, measured: diarrhoea; advanced solid tumour patients; intravenous, 16 mg weekly, grade ≥3): 0%
COc1ncccc1-c1cnn2ccc(N3CCN(C(=O)OC(C)C)CC3)nc12  free drug concentration (rat, thermal hyperalgesia model, plasma; oral, 1 mg/kg, 180 min): 1.1 nM
Cc1cccc(Cn2nc(C3CC3)c3c(NC(=O)c4cnc5cc(OCCN6CCN(C)CC6)ccn45)cccc32)n1  adverse events incidence (measured: Pyrexia; human advanced solid tumours; oral, 400 mg, all-causality): 42.9%
Cc1ncnc2c1ccn2[C@@H]1C[C@H](Oc2cc(C(F)F)c(F)c3c2CNCC3)[C@@H](O)[C@H]1O  Hypomagnesemia incidence (patients; dose not given, any grade; relative to: patients): 6%
C[C@]1(O)C[C@@](N)(c2ccc(-c3nc4n(c3-c3ccccc3)COc3ccncc3-4)cc2)C1  patients with Fatigue TEAE (human, advanced or metastatic solid tumours; intermittent, dose escalation total, any grade): 57.1%

Excerpt of the above:
C[C@]1(CO)Cc2ncn(-c3ccc(C#N)c(Cl)c3)c2C(=O)O1  drug-related Headache incidence (Japanese subjects; dose not given, all doses total): 0%
O=C(c1ccc(Cl)cc1)N1CCN2C(=O)N(OC(=O)N3CCOc4ccccc43)C(=O)C2C1 (stereo not drawn)  median ratio (Acylamino-acid-releasing enzyme (APEH, Homo sapiens, UniProt P13798); enzyme activity, inhibitor, MS-based ABPP; SW-620 in situ; 10 µM, 2 h, 37 °C; relative to: compound over DMSO, lower = stronger inhibition): 1.13
